# Results from different studies.
# Lines come from different studies, so protocols differ. Numbers after ± are the reported error.
# UCHL1: Ubiquitin carboxyl-terminal hydrolase isozyme L1 (UCHL1, Homo sapiens, UniProt P09936)
# Sequence of UniProt P09936 (whole entry, looked up): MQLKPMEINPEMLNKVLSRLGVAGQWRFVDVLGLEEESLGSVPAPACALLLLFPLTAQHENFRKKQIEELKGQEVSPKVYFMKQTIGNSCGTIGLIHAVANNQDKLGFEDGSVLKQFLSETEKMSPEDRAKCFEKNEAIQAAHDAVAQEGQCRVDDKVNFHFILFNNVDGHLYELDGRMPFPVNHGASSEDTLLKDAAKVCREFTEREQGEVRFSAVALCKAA
Compound,target or system,test,system,conditions,how to read,quantity,result
Cn1cnc2c(F)c(Nc3ccc(Br)cc3Cl)c(C(=O)NOCCO)cc21,,population PK model,"human, plasma","oral, transit compartment absorption model, fed",,mean transit time,2.41 h
CC(C)CCC[C@@H](C)[C@H]1CC[C@H]2[C@@H]3C(O)CC4=CC(=O)CC[C@]4(C)[C@H]3CC[C@]12C (stereo partly drawn),,,"human, plasma","oral, dose not given, control",,mean daily plasma concentration,76 ± 13.9 nM
Cc1ccc(O)c(-n2nc3ccccc3n2)c1,,exposure assessment,"human, age 21-60 years",spray sunscreen,,mean daily dermal uptake,878 ng/kg body weight/day
C[C@H](CCC(=O)NCC(=O)O)[C@H]1CC[C@H]2[C@@H]3CC[C@@H]4C[C@H](OS(=O)(=O)O)CC[C@]4(C)[C@H]3C[C@H](O)[C@]12C,,,"human, plasma",baseline,,mean daily plasma concentration,253 ± 70 nM
CCN1CCN(Cc2ccc(Nc3ncc(F)c(-c4cc(F)c5nc(C)n(C(C)C)c5c4)n3)nc2)CC1,,population PK model,"human, plasma",oral,,mean transit time,1.54 h
C[C@@H](O)CCOC(=O)C[C@@H](C)O,,,human,"oral drink, dose not given, 120 min post dose, mean",,mean arterial pressure,79 mmHg
C=CC(=O)N(C)CCOc1c(N)ncnc1-c1cc(F)cc(NC(=O)c2ccc(C3CC3)cc2F)c1C,,,"human, whole blood","oral, 5 mg, single ascending dose",,mean residence time,0.62 h
CCCCCc1ccc(C(=O)Oc2ccc(C#N)c(F)c2)cc1,,,"human mother-newborn pairs, female, maternal serum",,,mean serum concentration,0.45 ng/mL
CCn1c(C(=O)N(C2CC2)C2CC2)cc2c3c(ncn3C)c(Nc3cc(C)n(C)n3)nc21,,,"human cancer patients, plasma","oral, 200 mg single dose, 1 h, first-in-human study",,mean plasma concentration,1320 ng/mL
C[C@H](CCC(=O)NCCS(=O)(=O)O)[C@H]1CC[C@H]2[C@@H]3[C@H](O)C[C@@H]4C[C@H](O)CC[C@]4(C)[C@H]3C[C@H](O)[C@]12C,,,"human, plasma",control,,mean daily plasma concentration,16.7 ± 1.5 nM
CCCOc1ccc(-c2ccc(C#N)cc2)cc1,,,"human mother-newborn pairs, female fetuses, cord serum",,,mean serum concentration,0.92 ng/mL
O=C(CCl)NC1CCN(C(=O)c2ccco2)c2ccccc21 (stereo not drawn),UCHL1,"covalent, intact protein LC-MS",,12.5 µM,,labelling,26.8%
Cn1cc(-c2cn3nccc3c(-c3cnn([C@]4(CC#N)C[C@@H](C#N)C4)c3)n2)cn1,,,healthy human,400 mg once daily,,mean residence time,8 h
Cc1cc(C)c(-c2csc(NC(=O)CCl)n2)cc1C,UCHL1,"covalent, intact protein LC-MS",,12.5 µM,,labelling,11.6%
O=C([O-])CN(CCN(CC(=O)[O-])Cc1cc(CCC(=O)NCCCCCC(=O)NCCCC[C@H](NC(=O)N[C@@H](CCC(=O)O)C(=O)O)C(=O)O)ccc1[O-])Cc1cc(CCC(=O)O)ccc1[O-].[68Ga+3].[OH3+],,PET/CT,"human, primary prostate cancer, primary lesion",,,mean SUVmax,22.7 ± 25.7
Cc1ccc(Sc2ccccc2N2CCNCC2)c(C)c1,,,"healthy male humans fed, plasma","oral, 10 mg single, high-fat breakfast",,mean Cmax,4.1 ng/mL
CCCCc1ccc(C#Cc2ccc(OCC)cc2)cc1,,,"human mother-newborn pairs, maternal serum",,,mean serum concentration,0.4 ng/mL
NC[C@@]1(CC(=O)O)[C@@H]2CC[C@H]3C[C@@H]2[C@@H]1C3,,,"human, moderate renal impairment, plasma","oral, 20 mg single dose, geometric mean",,mean residence time,9.37 h
CCCC1CCC(c2ccc(-c3ccc(F)c(F)c3)cc2)CC1 (stereo not drawn),,,"human mother-newborn pairs, female, maternal serum",,,mean serum concentration,0.59 ng/mL
N#Cc1ccc2c(c1)[C@H]1CCCN(C(=O)c3ccc4[nH]cnc4c3)[C@H]1C2,,,human,"160 mg, day 7",,mean ACTH level,7.5 pmol/L
CCCCOc1ccc([C@H]2CC[C@H](CCC)CC2)c(F)c1F,,,"human mother-newborn pairs, cord serum",,,mean serum concentration,7.51 ng/mL
C[C@H](CCC(=O)NCCS(=O)(=O)O)[C@H]1CC[C@H]2[C@@H]3CC[C@@H]4C[C@H](OS(=O)(=O)O)CC[C@]4(C)[C@H]3CC[C@]12C,,,"human, plasma",baseline,,mean daily plasma concentration,127 ± 31 nM
CC(C)Cc1ccc(CN2CCCC(NC(=O)c3nn(C)c(=O)c4ccccc34)C2)cc1 (stereo not drawn),Trypanosoma cruzi,"reporter translation, Renilla luciferase mRNA translation",cell-free extract,40 µM,relative to: DMSO,inhibition,5.1%
CCCCc1ccc(-c2ccc(C#N)cc2)cc1,,,"human mother-newborn pairs, cord serum",,,mean serum concentration,0.23 ng/mL

# For quick reference, copied from above:
Compound,target or system,test,system,conditions,how to read,quantity,result
C[C@H](CCC(=O)NCC(=O)O)[C@H]1CC[C@H]2[C@@H]3CC[C@@H]4C[C@H](OS(=O)(=O)O)CC[C@]4(C)[C@H]3C[C@H](O)[C@]12C,,,"human, plasma",baseline,,mean daily plasma concentration,253 ± 70 nM
Cc1ccc(Sc2ccccc2N2CCNCC2)c(C)c1,,,"healthy male humans fed, plasma","oral, 10 mg single, high-fat breakfast",,mean Cmax,4.1 ng/mL
CCn1c(C(=O)N(C2CC2)C2CC2)cc2c3c(ncn3C)c(Nc3cc(C)n(C)n3)nc21,,,"human cancer patients, plasma","oral, 200 mg single dose, 1 h, first-in-human study",,mean plasma concentration,1320 ng/mL
